Assay results from different studies.
Lines come from different studies, so protocols differ. Several values in a cell are separate wells, animals, samples, runs or records. ± gives the spread as reported.
ABL1 H396P: Tyrosine-protein kinase ABL1 (ABL1, Homo sapiens, UniProt P00519, H396P)
NF-kappa-B inhibitor alpha: NF-kappa-B inhibitor alpha (Homo sapiens, UniProt P25963)
Aryl hydrocarbon receptor: Aryl hydrocarbon receptor (Danio rerio, UniProt Q9YGV3)
AHR: Aryl hydrocarbon receptor (AHR, Homo sapiens, UniProt P35869)

Compound | target | test | system | setting | how to read | measurement | result
CCC1(O)CCCN(C(=O)c2ccc(-c3ccc(F)c(NC(=O)CCl)c3)cc2)C1 (stereo not shown) | DNA dC->dU-editing enzyme APOBEC-3B, C-terminal domain (Homo sapiens, UniProt Q9UH17) | covalent modifier, intact protein mass spectrometry, refers to: adduct +25721 Da |  | 250 µM, 1 h, 10-fold molar excess |  | protein adduct | 72.5%
CC[C@H](C)[C@@H]1NC(=O)[C@H](C)NC(=O)[C@H]([C@@H](C)CC)NC(=O)[C@H](CCC(N)=O)NC(=O)[C@H](C)NC(=O)[C@H](CCCNC(=N)N)NC(=O)[C@H](C(C)C)NC(=O)[C@H](CC(C)C)NC(=O)[C@H](CCC(=O)O)NC(=O)[C@H](CCCNC(=N)N)NC(=O)CNC(=O)[C@@H](NC(=O)[C@H](CC(C)C)NC(=O)[C@H](CCCCN)NC(=O)[C@@H](NC(=O)[C@@H](NC(=O)[C@H](CCC(=O)O)NC(=O)[C@H](CCC(=O)O)NC(=O)[C@H](CCSC)NC(=O)[C@H](Cc2c[nH]c3ccccc23)NC(=O)[C@H](CO)NC(=O)[C@@H](N)CC(=O)O)C(C)C)[C@@H](C)CC)CSSC[C@@H]2NC(=O)[C@@H](NC(=O)[C@H](CCCCN)NC(=O)[C@H](CC(N)=O)NC(=O)[C@H](C)NC(=O)[C@H](CC(C)C)NC(=O)[C@H](C)NC(=O)[C@H](CO)NC(=O)[C@H](Cc3ccc(O)cc3)NC(=O)[C@H](CC(C)C)NC(=O)[C@H](CCC(N)=O)NC(=O)c3ccc(-c4c5ccc(=[N+](C)C)cc-5oc5cc(N(C)C)ccc45)c(C(=O)[O-])c3)CSSC[C@H](NC(=O)CNC(=O)[C@H](C(C)C)NC(=O)[C@H](Cc3c[nH]cn3)NC2=O)C(=O)N[C@@H]([C@@H](C)O)C(=O)N[C@@H](CCCCN)C(=O)N[C@@H](CCCNC(=N)N)C(=O)N[C@@H](CO)C(=O)N[C@@H](CC(C)C)C(=O)N[C@@H](C)C(=O)N[C@@H](CCCNC(=N)N)C(=O)N[C@@H](Cc2ccccc2)C(=O)N[C@H](C(=O)O)CSSC[C@@H](C(=O)NCC(=O)N[C@@H](CCSC)C(=O)N[C@@H](CO)C(=O)N[C@H](C(=O)N[C@@H](Cc2c[nH]c3ccccc23)C(=O)N[C@@H](CO)C(=O)O)[C@@H](C)O)NC1=O | Relaxin receptor 1 (RXFP1, Homo sapiens, UniProt Q9HBX9, F76A/Y80A) | NanoBRET dissociation |  | infinite dilution, together with: 10 nM relaxin |  | koff slow phase | 0.000972 s⁻¹
CN(C)c1ncc(F)c(-c2cnn3ncccc23)n1 | ABL1 H396P | KINOMEscan |  | 1 µM | relative to: control | remaining binding | 98%
CCOC(=O)C(C)c1n[nH]c2nc(N)[nH]c(=O)c2c1=O (stereo not shown) | folP (Bacteria, UniProt P0AC13) | CETSA HiBiT | Escherichia coli, cell lysate | concentration not given | relative to: DMSO | melting temperature shift | 12.3 °C
Nc1cccc2c1C(=O)N(C1CCC(=O)NC1=O)C2=O (stereo not shown) | Sal-like protein 4 (SALL4, Homo sapiens, UniProt Q9UJQ4) | degrader | C33A |  |  | Dmax | 68 ± 6%
COc1cccc(C(=O)C#Cc2ccc(O)c(OC)c2)c1 | mvfR (Pseudomonas aeruginosa, UniProt Q9I4X0) | receptor binding |  | concentration not given, 1.5 h, together with: PQS at 1:1 ratio | relative to: control | binding | 84%
CC[C@H](C)[C@H](NC(=O)[C@H](CO)NC(=O)[C@H](CCCCN)NC(=O)[C@H](Cc1ccccc1)NC(=O)[C@@H](NC(=O)[C@H](CCC(=O)O)NC(=O)[C@H](Cc1ccc(O)cc1)NC(=O)[C@@H](NC(=O)[C@H](CCCNC(=N)N)NC(=O)[C@H](CCCCN)NC(=O)[C@H](CCCNC(=N)N)NC(=O)[C@H](CCCCN)NC(=O)[C@H](CCC(=O)O)NC(=O)[C@H](CCC(=O)O)NC(=O)[C@@H](NC(=O)[C@H](CCCNC(=N)N)NC(=O)[C@H](Cc1c[nH]cn1)NC(=O)[C@H](CCCNC(=N)N)NC(=O)[C@H](CC(=O)O)NC(=O)[C@H](CC(=O)O)NC(=O)[C@@H](NC(=O)[C@H](CC(=O)O)NC(=O)[C@@H]1CCCN1C(=O)[C@@H](N)CC(C)C)[C@@H](C)O)[C@@H](C)CC)[C@@H](C)O)[C@@H](C)O)C(=O)N[C@@H](C)C(=O)N[C@@H](CCCCN)C(=O)N[C@@H](CCCCN)C(=O)N[C@@H](CO)C(=O)N1CCC[C@H]1C(=O)N[C@@H](Cc1ccccc1)C(=O)N[C@@H](CC(N)=O)C(=O)NCC(=O)N1CCC[C@H]1C(=O)O | NF-kappa-B inhibitor alpha | binding, ITC |  | pH 7.5, 293 K, 50 mM NaCl |  | ΔG | -8.1 ± 0.1 kcal/mol
Nc1ccc2ccc3cccc4ccc1c2c34 | Aryl hydrocarbon receptor | reporter gene, agonist, luciferase reporter | ZF-4 | 10000 µM | relative to: vehicle control | fold change | 1.35
COC(=O)c1cccc(C(=O)c2c[nH]c3ncccc23)n1 | AHR | reporter gene, agonist, XRE luciferase | HepG2 |  | relative to: ITE | Emax | 48 ± 5%
C=CC(=O)N1CCC[C@@H](n2nc(-c3ccc(Oc4ccccc4)cc3)c3c(N)ncnc32)C1 | Elongation factor 1-beta (Homo sapiens, UniProt P24534) |  |  | 10 µM |  | remaining activity | 19.4%
O=[N+]([O-])c1cc(C(F)(F)F)ccc1NCc1ccsc1 | Endothelial PAS domain-containing protein 1, PAS-B domain (EPAS1, Homo sapiens, UniProt Q99814) | binding, ITC, reverse mode |  |  |  | ΔG | -8.43 ± 0.5 kcal/mol
[Cl-].[K+] | GUK1 (Homo sapiens, UniProt Q16774) | enzyme activity, 1H NMR |  |  |  | equilibrium GDP/GMP ratio | 0.0874 and 0.202 and 0.211
CCCCCCCC(=O)c1cc(OC)c(OC)c(OC)c1CC(=O)OCC | NR1H3 (Homo sapiens, UniProt Q13133) | reporter gene, Gal4 hybrid reporter |  | 10 µM | relative to: vehicle | activation | 0.59 fold
NC/C(=C\F)COc1cccc(Cn2c(=S)[nH]c(=O)c3[nH]cnc32)c1 | Myeloperoxidase (MPO, Homo sapiens, UniProt P05164) | inhibitor, cholesteryl ester hydroperoxide |  | 0.1667 µM | relative to: control | LDL lipid peroxidation | 12.4% and 14.6% and 4.83% and 6.12%
C[C@H]1CCN(c2nccc(-c3cnn4ncccc34)n2)C1 | ABL1 H396P |  |  | 1 µM | relative to: control | remaining binding | 66%
O=C(O)C1=CCNCC1 | GABA-A receptor; alpha-1/beta-2/gamma-2 (Rattus norvegicus, UniProt P18508+P62813+P63138) | chloride current, agonist, whole-cell patch clamp | HEK293 expressing GABAA | 30 s | relative to: maximum | maximal response | 110%
CCCCC[C@H](O)/C=C/[C@H]1C(=O)C[C@H](O)[C@@H]1C/C=C\CCCC(=O)O | PTGDR (Homo sapiens, UniProt Q13258, M112A) | agonist, ONE-GO BRET |  | 0.0003052 µM (306 pM) | relative to: wild-type receptor maximum | Gs protein activation | 3.66%

Compound | target | test | system | setting | how to read | measurement | result
CC[C@@H]1[C@H](F)C(=O)N[C@@H]1COc1nccc2cc(C(N)=O)c(OC)cc12 | Aurora kinase A (AURKA, Homo sapiens, UniProt O14965) | ATP probe binding, KiNativ profiling, refers to: Lys1 probe site | THP-1 cell lysate | 0.01 mM |  | inhibition | -3.4%
Cc1cccc2c1ccc1cc(C(C)C)ccc12 | Aryl hydrocarbon receptor | reporter gene, agonist, luciferase reporter | ZF-4 | 13.72 µM | relative to: vehicle control | fold change | 0.883
NCCCC(=O)O | SLC6A6 (Homo sapiens, UniProt P31641, L306A) | binding, microscale thermophoresis |  | 125 µM, room temperature, together with: 50 nM labelled protein | higher = more binding | normalised MST signal | 0.178
CN(C)C(=O)C(CCN1CCC(O)(c2ccc(Cl)cc2)CC1)(c1ccccc1)c1ccccc1 | Calcium-activated potassium channel subunit alpha-1, with LRRC26 γ1 subunit (KCNMA1, Homo sapiens, UniProt Q12791) | ion current, inside-out patch, mean of individual fits | BKα/γ1 channel | 0.3 µM, together with: nominally 0 Ca2+ |  | V1/2 | 14 ± 4 mV
N[C@H]1CCN(c2nccc(-c3cnn4ncccc34)n2)C1 | ABL1 (Homo sapiens, UniProt P00519, F317I) | KINOMEscan |  | 1 µM | relative to: control | remaining binding | 99%
CCCCc1nnc2c(N)nc3ccccc3n12 | TLR8 (Homo sapiens, UniProt Q9NR97) | reporter gene, agonist, NF-κB reporter | HEK-Blue TLR8 |  |  | EC50 | inactive
CCCCCCCCCCCCC/C=C/[C@@H](O)[C@H](CO)NC(=O)CCCCCCCCCCCCCCCCCCC | Protein SET (SET, Homo sapiens, UniProt Q01105) | lipid binding, GFP pull-down LC-MS/MS | A549 overexpressing GFP-tagged protein | unit not given | relative to: vector-transfected cells | bound endogenous lipid | 8.7
O=C(O)c1ccc(Nc2ncc3c(n2)-c2ccc(Cl)cc2C(c2c(F)cccc2F)=NC3)cc1 | human PAK4(h) | kinase activity |  | 1 µM |  | remaining activity | 96%
O=C(O)[C@@H]1CCCN1c1ncnc2[nH]cnc12 (racemic) | DDB1- and CUL4-associated factor 7 (Homo sapiens, UniProt P61962) | binding, affinity selection mass spectrometry |  |  | relative to: other proteins in batch | fold enrichment | 0.87
Cc1ccc2ccc3ccc(C)cc3c2c1 | AHR | reporter gene, agonist, yeast LacZ reporter | Saccharomyces cerevisiae |  |  | maximum response | 47.9 LacZ units
CCOc1cc(-c2nncn2C)ccc1Nc1ncc2cc(C)nc(NCC(C)(C)C)c2n1 | STK16 (Homo sapiens, UniProt O75716) | binding, LanthaScreen binding |  | 1 µM |  | displacement | 29%
CN1C(=O)/C(=C2\Nc3ccccc3\C2=N/O)c2ccc(Br)cc21 | Aryl hydrocarbon receptor | reporter gene, agonist, luciferase reporter | ZF-4 | 0.16 µM | relative to: vehicle control | fold change | 12
CC[C@H](C)[C@H](NC(=O)[C@H](CCCNC(=N)N)NC(=O)[C@H](Cc1c[nH]cn1)NC(=O)[C@H](CCCNC(=N)N)NC(=O)[C@H](CC(=O)O)NC(=O)[C@H](CC(=O)O)NC(=O)[C@@H](NC(=O)[C@H](CC(=O)O)NC(=O)[C@@H]1CCCN1C(=O)[C@@H](N)CC(C)C)[C@@H](C)O)C(=O)N[C@@H](CCC(=O)O)C(=O)N[C@@H](CCC(=O)O)C(=O)N[C@@H](CCCCN)C(=O)N[C@@H](CCCNC(=N)N)C(=O)N[C@@H](CCCCN)C(=O)N[C@@H](CCCNC(=N)N)C(=O)N[C@H](C(=O)N[C@@H](Cc1ccc(O)cc1)C(=O)N[C@@H](CCC(=O)O)C(=O)N[C@H](C(=O)N[C@@H](Cc1ccccc1)C(=O)N[C@@H](CCCCN)C(=O)N[C@@H](CO)C(=O)N[C@H](C(=O)N[C@@H](CCSC)C(=O)N[C@@H](CCCCN)C(=O)N[C@@H](CCCCN)C(=O)N[C@@H](CO)C(=O)N1CCC[C@H]1C(=O)N[C@@H](Cc1ccccc1)C(=O)N[C@@H](CC(N)=O)C(=O)NCC(=O)N1CCC[C@H]1C(=O)O)[C@@H](C)CC)[C@@H](C)O)[C@@H](C)O | NF-kappa-B inhibitor alpha | binding, ITC |  | pH 7.5, 293 K, 50 mM NaCl |  | ΔH | -3.7 ± 0.03 kcal/mol
COc1cc(-c2cncc3c2CN(C)Cc2cc(N4CCNCC4)ccc2-3)cc(OC)c1OC | PRKAA2 (Homo sapiens, UniProt P54646) | kinase activity |  | 1 µM, human enzyme, together with: ATP 10 µM | relative to: DMSO control | remaining activity | 114%
O=C1C=CC(=O)c2c1ccc1ccccc21 | Aryl hydrocarbon receptor | reporter gene, agonist, luciferase reporter | ZF-4 | 13.72 µM | relative to: vehicle control | fold change | 4.04
O=c1c(Oc2ccccc2)c(C(F)(F)F)oc2c3c(ccc12)OCCO3 | Cullin-1, C-terminal domain with ROC1 (Homo sapiens, UniProt Q13616) | inhibitor |  | up to 80 µM |  | E3 ligase activity | no inhibition
O=C(COP(=O)(O)O)[C@@H](O)[C@H](O)[C@H](O)COP(=O)(O)O | Small ribosomal subunit protein mS35 (Homo sapiens, UniProt P82673) | thermal proteome profiling, refers to: MRPS35 | HepG2 cell lysate | concentration not given, 57 over 37 °C | relative to: compound over control | thermal stability ratio | 0.389 and 0.591 and 0.5

For quick reference, copied from above:
Compound | target | test | system | setting | how to read | measurement | result
Nc1ccc2ccc3cccc4ccc1c2c34 | Aryl hydrocarbon receptor | reporter gene, agonist, luciferase reporter | ZF-4 | 10000 µM | relative to: vehicle control | fold change | 1.35
COC(=O)c1cccc(C(=O)c2c[nH]c3ncccc23)n1 | AHR | reporter gene, agonist, XRE luciferase | HepG2 |  | relative to: ITE | Emax | 48 ± 5%
C=CC(=O)N1CCC[C@@H](n2nc(-c3ccc(Oc4ccccc4)cc3)c3c(N)ncnc32)C1 | Elongation factor 1-beta (Homo sapiens, UniProt P24534) |  |  | 10 µM |  | remaining activity | 19.4%
O=[N+]([O-])c1cc(C(F)(F)F)ccc1NCc1ccsc1 | Endothelial PAS domain-containing protein 1, PAS-B domain (EPAS1, Homo sapiens, UniProt Q99814) | binding, ITC, reverse mode |  |  |  | ΔG | -8.43 ± 0.5 kcal/mol
[Cl-].[K+] | GUK1 (Homo sapiens, UniProt Q16774) | enzyme activity, 1H NMR |  |  |  | equilibrium GDP/GMP ratio | 0.0874 and 0.202 and 0.211
CCCCCCCC(=O)c1cc(OC)c(OC)c(OC)c1CC(=O)OCC | NR1H3 (Homo sapiens, UniProt Q13133) | reporter gene, Gal4 hybrid reporter |  | 10 µM | relative to: vehicle | activation | 0.59 fold
